Measurements collected from several papers.
Every numbered part comes from another study and shows a few of its results, in no order. Changes are numbered by the printed parent chain.

Block 1
Target: Sal-like protein 4, full length isoform B (SALL4, Homo sapiens, UniProt Q9UJQ4-2, residues 1-616)
Technique: universal PBM
Form: double-stranded DNA, one strand shown
Medium: in vitro
Tested at: not given
Notes: 8-mer, flanks averaged, mean of replicates
Reading: higher = stronger binding
Endpoint: E-score
GAAGCATA: 0.184
ATCTACAG: 0.152
CGAGGTTA: -0.0149
GCCATAGA: -0.108
CGATACCA: 0.0878
AGCCTTTG: -0.145
CCTGCCGA: -0.19
ACCCCTGA: -0.109

Block 2
Target: PABPC1L2, full length, GST fusion (mouse, UniProt A0ABA7IW68)
Technique: RNAcompete
Form: RNA
Medium: in vitro
Tested at: 20 nM
Notes: 7-mer, probes averaged, single round
Reference: mean of 7-mers
Reading: higher = stronger binding
Endpoint: 7-mer Z-score
Target sequence (chain): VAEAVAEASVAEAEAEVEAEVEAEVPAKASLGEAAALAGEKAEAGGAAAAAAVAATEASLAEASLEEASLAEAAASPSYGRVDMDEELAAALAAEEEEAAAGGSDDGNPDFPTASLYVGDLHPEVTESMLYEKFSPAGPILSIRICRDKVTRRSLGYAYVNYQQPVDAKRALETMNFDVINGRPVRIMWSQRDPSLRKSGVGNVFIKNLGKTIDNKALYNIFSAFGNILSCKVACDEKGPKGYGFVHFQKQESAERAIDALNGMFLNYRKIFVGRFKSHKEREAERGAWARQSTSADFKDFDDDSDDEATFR
AUAGCUC: -0.296
GAGCAAG: -0.0138
CUAAGGC: -0.0989
ACAUAAC: 0.122
GAAAAGA: 3.93
CCAGUUU: -0.443
GCGGACG: 0.0587
AUGCCCG: -0.347

Mixed results
P1: viral docking peptide; KKAKRRLFTISDS; partner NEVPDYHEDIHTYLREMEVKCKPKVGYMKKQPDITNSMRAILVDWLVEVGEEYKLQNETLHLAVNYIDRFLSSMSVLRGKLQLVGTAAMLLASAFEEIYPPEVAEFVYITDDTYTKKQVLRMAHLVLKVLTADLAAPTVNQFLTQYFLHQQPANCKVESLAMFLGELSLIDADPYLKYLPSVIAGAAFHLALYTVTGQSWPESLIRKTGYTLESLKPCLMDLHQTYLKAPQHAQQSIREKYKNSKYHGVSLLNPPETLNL
P1 R5A L7A — normalised enrichment score (CCNA2, cyclin fold, Cln2 fusion (human); yeast growth competition, sequencing; yeast; strong parent motif; reference: not given, higher = stronger binding): 0.871
PhoQ, residues 284 288 289 292 302 303 SLSLLA — fold induction (PhoP, residues 12 14 15 18 19 NHFIF (Escherichia coli, UniProt P23836); Sort-seq, measured: YFP reporter; E. coli; PhoQ-PhoP variant library, with: 10 µM Mg2+; reference: high Mg2+ state, higher = stronger signaling): 1.35

For quick reference, copied from above (block 2):
CCAGUUU: -0.443
CUAAGGC: -0.0989
